Measured values gathered from unrelated publications.
A part holds a random share of what one study measured.

Set 1 — technique: RNA Bind-n-Seq; form: RNA; medium: in vitro; concentration: 365 nM; reference: no-protein control; direction: higher = stronger binding
Target: RNA binding protein fox-1 homolog 2, RRM domain, GST-SBP tag (RBFOX2, Homo sapiens, UniProt O43251-10, residues 100-194)
Setting: natural RNA segment, single round, ends assumed
Target sequence (chain): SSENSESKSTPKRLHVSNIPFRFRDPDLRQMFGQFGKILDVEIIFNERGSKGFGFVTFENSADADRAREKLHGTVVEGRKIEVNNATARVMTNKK
Strand | RBNS enrichment (R)
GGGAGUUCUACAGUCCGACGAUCUUUUUUUAUUUAAAAAAAGAUAUAUUAACAGUUUUAGAAGUCAGUAGAAUAAAAUCUUAAAGCACUCAUAAUAUGGCAUCCUUCAAUUUCUGUAUAAAAGCAGAUCUUUUUGGAAUUCUCGGGUGCCAA | 1.02
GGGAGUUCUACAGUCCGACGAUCUUUUAGGACUUAGCAGAGCUGAGAGCCCUUUGUUGCUCAAUGCUGUGAGCCUUAAGCAUGUGAAUCCCCCCACAUGACAAGUGGGGAGACCCAGGGUAGGCUUUCCUUUGUGGAAUUCUCGGGUGCCAA | 2.7
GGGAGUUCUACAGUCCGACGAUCAGGAUGGAGAGGACUUGGUGGAUUUUUGUUUCUUGCCUGACCUCAGUUUCAUGAAAGAAAGUGGAAGCUACAGAAUUAUUUUCUAAAAUAAAGGCUGAAUUGUCUGAAAAUGGAAUUCUCGGGUGCCAA | 0.535
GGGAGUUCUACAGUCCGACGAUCAGCUAACCCUAAGGUUUCCUAGCUGUGGGAAGAGGUGAGUUCUUUGAGACCUCCGGCCUUAGGAAGUUGCUUCCAUUAGGAAAUGCCUUUCUGAUCCCAGGAGCUCAGCUUGGAAUUCUCGGGUGCCAA | 0.187
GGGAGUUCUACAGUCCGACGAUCAAUAUUUUUUUCUUAGUGAUUUUGACAGUUUAAAUGUUUAACAACUUAAAGCAUUAAAAAUGCUUAUUAAUAACUUUGGUCAUUUAAAAAAUGCUACAAUGACUUCCUAUUGGAAUUCUCGGGUGCCAA | 0.498
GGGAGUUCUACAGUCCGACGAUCAUUACUGUGUACCUAAGUGGUGUGAUGUAAAUACUGGAAACAAAAACAGCAGUUGCAUUGAUUUUGAAAACAAACCCCCUUGUUAUCUGAACAUGUUUUCUUCAGGAACAUGGAAUUCUCGGGUGCCAA | 0.309
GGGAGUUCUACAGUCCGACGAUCCACUUUAUUCCUGCCCACGUGGCUUUUGGCUGAGACCUGUGUAACCUGCUGUCCCUCACUCACCUGUCACCUGUCACCCUACGGGGACCCACUUGUGGCUUCCCACGUGGUGGAAUUCUCGGGUGCCAA | 0.295
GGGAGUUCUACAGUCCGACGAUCGUUAGUAGCUUCACAGGGCUUUUAUGUUUAACUUAUUCCCAGGGGCCGUCCCACCCUGCUGUGCCUGCACAGUUCCCAGUGCCUGUGCCUGCGCCUGCUGGGGACAGUGUUGGAAUUCUCGGGUGCCAA | 2.2
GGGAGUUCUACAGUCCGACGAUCAGUUUUUAGACCCCAGAGGGAGAUGAGCUUUUCCAAGCUGUGUCUGGGCCAGAGCCUCUCCUUGCCCUUGCUCCAUCCCGACGGUCACCGUUGGGUCCACGCCUCCACCGUGGAAUUCUCGGGUGCCAA | 0.336
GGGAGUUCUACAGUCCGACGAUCUGCUUGGAAAGAUGGCUCUCAGCAAAAUCUGUUUGUCUUACACGUCUCUCAGGGAAAAAACAUGCAGUCUUCAAGCAUCUUCCAUGUACAUUCUAUCUGGGUGAACACCUUGGAAUUCUCGGGUGCCAA | 0.914
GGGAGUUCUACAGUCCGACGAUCUCUCUGCCCUAGAGGUGCUACCUGUGACAGGGACCAAGUGCAUGUGUGUUCAGUGUUUGACUCCAAAACAGCUGCCUGCUCCCUCAGUGUGCUCGGUGGGGAGAGGGCCGUGGAAUUCUCGGGUGCCAA | 3.41
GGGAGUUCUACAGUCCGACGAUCCUAUUUUGAUAAUACAUAUUAUUUACCCCACUGUAACAUCCUGUAAACUAAAUGCGUUUUUAAGCAAUUUUUAAGACUUGUAAUUACCCUAAAAAUAAGGUUUAUUAAGCUGGAAUUCUCGGGUGCCAA | 0.443

Set 2 — technique: protein binding microarray; form: double-stranded DNA, one strand shown; medium: in vitro; concentration: not given; reference: not given; direction: higher = stronger binding
Target: Histone acetyltransferase KAT6A, both winged helices, GST fusion (KAT6A, Homo sapiens, UniProt Q92794, residues 1-181)
Setting: 8-mer, flanks averaged, mean of 2 arrays, mostly near background
Construct (chain): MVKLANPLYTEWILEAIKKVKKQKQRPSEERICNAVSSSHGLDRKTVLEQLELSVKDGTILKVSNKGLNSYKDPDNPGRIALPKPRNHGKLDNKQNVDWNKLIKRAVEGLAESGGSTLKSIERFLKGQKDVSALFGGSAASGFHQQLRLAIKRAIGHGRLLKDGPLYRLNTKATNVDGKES
Strand | E-score
GGAGCCCC | -0.0712
CTAGTAAA | 0.061
ACACAGAA | -0.125
CATTGATC | -0.131
CATCACAC | -0.0865
CAAGACAC | 0.00519
GTCGTAAC | -0.109
CGGACTCC | 0.0809
GTCATCAC | -0.101
AGCACTAC | -0.0911
ATCGGAAC | 0.0865
AGCCCTAT | -0.153
CACGCCCA | -0.129
AGTTAAAA | -0.0872
CTACCCCA | -0.187
AAAAAGAG | -0.237
ACTAGCTC | -0.0442
AGGTTTAA | -0.0828
CATGCTCC | -0.0452
GAGCAGCC | -0.0619
GTGATGTA | -0.0211
CCCTTTCG | -0.0194
GGTTACAA | 0.0206
ACGTCGAT | -0.0276
ACGTTTGA | -0.0725

Set 3 — technique: aptamer microarray, sandwich; form: DNA with 2'F-ANA; medium: in vitro; concentration: 200 nM; with: Cy3 exosite-II aptamer, 400 nM; direction: higher = stronger binding; strand: GGTTGGTGTGGTTGG
Target: Prothrombin, mature alpha-thrombin (F2, Homo sapiens, UniProt P00734)
Setting: whole 15-mer aptamer, many near background
Modification | mean fluorescence intensity
2'F-ANA at 1 2 3 4 5 6 7 8 11 12 13 15 | 83.1 a.u.
2'F-ANA at 1 4 7 10 11 15 | 51.3 a.u.
2'F-ANA at 5 7 8 9 11 12 14 15 | 65.8 a.u.
2'F-ANA at 3 6 7 8 9 12 15 | 1240 a.u.
2'F-ANA at 1 2 4 8 10 14 15 | 44.9 a.u.
2'F-ANA at 3 4 7 9 15 | 723 a.u.
2'F-ANA at 1 3 4 6 7 9 11 15 | 178 a.u.
2'F-ANA at 1 5 6 7 8 9 10 13 14 | 50.1 a.u.
2'F-ANA at 3 4 5 7 8 13 14 15 | 55.1 a.u.
2'F-ANA at 3 4 9 10 12 13 | 326 a.u.
2'F-ANA at 5 9 10 12 13 14 15 | 44.9 a.u.
2'F-ANA at 5 7 9 10 11 14 | 44.7 a.u.
2'F-ANA at 2 3 6 7 8 10 11 13 14 15 | 217 a.u.
2'F-ANA at 4 7 8 13 14 | 130 a.u.
2'F-ANA at 4 9 10 11 13 15 | 113 a.u.
2'F-ANA at 1 4 6 8 10 11 12 13 14 | 44.7 a.u.
2'F-ANA at 6 11 12 14 | 202 a.u.
2'F-ANA at 1 5 8 10 15 | 48.3 a.u.
2'F-ANA at 1 3 4 6 10 13 14 | 48.4 a.u.
2'F-ANA at 4 5 7 8 12 14 15 | 51 a.u.
2'F-ANA at 3 4 5 6 8 9 12 | 214 a.u.
2'F-ANA at 2 3 4 6 8 10 12 15 | 246 a.u.
2'F-ANA at 1 2 3 4 6 8 9 10 14 | 51.9 a.u.
2'F-ANA at 1 3 5 7 9 10 12 13 | 48.2 a.u.
2'F-ANA at 1 3 4 6 7 9 10 12 13 15 | 68 a.u.

Set 4 — technique: universal PBM; form: double-stranded DNA, one strand shown; medium: in vitro; concentration: 600 nM; direction: higher = stronger binding
Target: Sal-like protein 4, full length isoform A (SALL4, Homo sapiens, UniProt Q9UJQ4, residues 1-1053)
UniProt Q9UJQ4, sequence (whole entry, looked up): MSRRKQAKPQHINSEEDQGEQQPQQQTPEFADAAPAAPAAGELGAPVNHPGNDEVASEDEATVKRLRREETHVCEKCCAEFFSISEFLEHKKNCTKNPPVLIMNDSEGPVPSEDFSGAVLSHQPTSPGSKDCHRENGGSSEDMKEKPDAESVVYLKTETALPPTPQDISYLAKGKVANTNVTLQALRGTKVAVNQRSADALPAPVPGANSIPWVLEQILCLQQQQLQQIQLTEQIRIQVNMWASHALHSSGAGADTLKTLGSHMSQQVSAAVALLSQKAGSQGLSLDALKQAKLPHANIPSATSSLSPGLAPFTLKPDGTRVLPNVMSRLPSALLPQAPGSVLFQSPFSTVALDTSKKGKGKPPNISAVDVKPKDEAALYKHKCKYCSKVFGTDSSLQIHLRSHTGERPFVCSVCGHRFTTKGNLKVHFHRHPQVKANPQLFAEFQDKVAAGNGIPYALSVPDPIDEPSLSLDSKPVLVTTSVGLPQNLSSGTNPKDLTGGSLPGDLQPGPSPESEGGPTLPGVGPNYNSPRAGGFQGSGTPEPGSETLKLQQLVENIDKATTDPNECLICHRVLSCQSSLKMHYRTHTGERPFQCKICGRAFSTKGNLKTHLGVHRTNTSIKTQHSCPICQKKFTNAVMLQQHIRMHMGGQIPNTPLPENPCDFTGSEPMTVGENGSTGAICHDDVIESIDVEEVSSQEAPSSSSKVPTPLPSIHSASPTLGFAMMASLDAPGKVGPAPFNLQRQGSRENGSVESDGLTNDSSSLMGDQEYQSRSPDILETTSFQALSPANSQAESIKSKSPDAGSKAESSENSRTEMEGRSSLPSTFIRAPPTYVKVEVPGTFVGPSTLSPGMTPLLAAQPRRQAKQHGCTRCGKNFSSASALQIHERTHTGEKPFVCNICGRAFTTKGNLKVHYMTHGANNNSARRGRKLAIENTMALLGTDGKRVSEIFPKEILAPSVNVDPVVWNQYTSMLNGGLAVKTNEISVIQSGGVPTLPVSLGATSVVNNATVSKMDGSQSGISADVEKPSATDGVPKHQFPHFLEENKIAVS
Setting: 8-mer, flanks averaged, mean of replicates
Strand | E-score
GACGCTGC | -0.299
AACACCTA | 0.0622
ACCTTTGC | 0.0324
AACCATCC | -0.0825
ACGGCTAA | -0.0381
CGAAGCCG | -0.309
ACCATAAT | 0.368
GGTAGTCA | -0.204
CACTAGGA | -0.201
GACGCTTA | -0.0682
GAAACTTA | 0.244
CCTTAAGG | -0.117
GCTGGGAC | -0.281
ATTGTTCC | 0.0224
CTGCGACA | -0.116
CGCCAGGA | -0.173
TAAACTGA | 0.169
CACCGGTC | -0.36
GAAGCTAC | -0.0533
CCACTTAC | -0.0359
AACGTACA | 0.129

Set 5 — technique: RNA Bind-n-Seq; form: RNA; medium: in vitro; concentration: 15 pmol; setting: 4-mer, random 30-nt RNA, single round; with: 3 µM RocA, 2 mM AMP-PNP; reference: mean of 4-mers; direction: higher = stronger binding
Target: Eukaryotic initiation factor 4A-I (EIF4A1, Homo sapiens, UniProt P60842, residues 1-406, full length assumed)
UniProt P60842, sequence (whole entry, looked up): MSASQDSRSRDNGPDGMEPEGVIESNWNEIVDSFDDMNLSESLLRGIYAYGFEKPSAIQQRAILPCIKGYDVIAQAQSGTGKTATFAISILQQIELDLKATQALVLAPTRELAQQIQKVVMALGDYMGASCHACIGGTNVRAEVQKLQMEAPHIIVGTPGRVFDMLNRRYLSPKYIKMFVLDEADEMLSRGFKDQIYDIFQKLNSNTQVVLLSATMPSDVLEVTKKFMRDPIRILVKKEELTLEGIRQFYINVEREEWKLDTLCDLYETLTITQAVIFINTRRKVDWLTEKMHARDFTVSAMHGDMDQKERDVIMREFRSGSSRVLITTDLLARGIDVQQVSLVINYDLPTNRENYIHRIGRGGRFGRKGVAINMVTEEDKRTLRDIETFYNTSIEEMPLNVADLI
Strand | 4-mer enrichment Z-score
GGCC | -0.556
GUCA | -1.07
CUGC | -0.641
ACAA | -0.411
CGCU | -0.507
AAUG | 1.25
UGAA | 1.81
GACU | -0.383
CAUG | -0.595
GCUU | -0.465
AAGU | 1.37
AACC | -0.801
GGCG | 1.22
GUAC | -0.573
CACG | -0.887
AUGG | 1.04
UCAC | -1.71
AAAC | -0.00965
UGUG | 1.83
GCUA | -0.219
GAGU | 1.92
CUAU | -0.637
AGGC | 0.205
AACG | -0.0137
